Published values collected from several papers.
A part holds a random share of what one study measured. “And” joins repeats or separate records; there may be more than shown.
Chain of UniProt Q99640 (whole entry, looked up): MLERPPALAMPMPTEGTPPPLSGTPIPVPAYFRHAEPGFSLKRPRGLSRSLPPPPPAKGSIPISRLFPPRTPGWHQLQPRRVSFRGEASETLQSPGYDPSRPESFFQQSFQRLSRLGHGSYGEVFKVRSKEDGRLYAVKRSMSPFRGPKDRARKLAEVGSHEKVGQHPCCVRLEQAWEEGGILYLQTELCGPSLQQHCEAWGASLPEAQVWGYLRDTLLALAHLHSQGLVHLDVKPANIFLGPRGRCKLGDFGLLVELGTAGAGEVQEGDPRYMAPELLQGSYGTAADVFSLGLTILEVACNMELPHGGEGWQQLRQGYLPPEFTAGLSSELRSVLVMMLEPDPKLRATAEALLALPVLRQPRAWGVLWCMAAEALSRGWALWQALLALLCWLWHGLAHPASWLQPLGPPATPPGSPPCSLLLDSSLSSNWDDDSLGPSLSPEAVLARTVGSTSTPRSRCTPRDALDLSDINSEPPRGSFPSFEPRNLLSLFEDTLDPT
Chain of UniProt Q14542 (whole entry, looked up): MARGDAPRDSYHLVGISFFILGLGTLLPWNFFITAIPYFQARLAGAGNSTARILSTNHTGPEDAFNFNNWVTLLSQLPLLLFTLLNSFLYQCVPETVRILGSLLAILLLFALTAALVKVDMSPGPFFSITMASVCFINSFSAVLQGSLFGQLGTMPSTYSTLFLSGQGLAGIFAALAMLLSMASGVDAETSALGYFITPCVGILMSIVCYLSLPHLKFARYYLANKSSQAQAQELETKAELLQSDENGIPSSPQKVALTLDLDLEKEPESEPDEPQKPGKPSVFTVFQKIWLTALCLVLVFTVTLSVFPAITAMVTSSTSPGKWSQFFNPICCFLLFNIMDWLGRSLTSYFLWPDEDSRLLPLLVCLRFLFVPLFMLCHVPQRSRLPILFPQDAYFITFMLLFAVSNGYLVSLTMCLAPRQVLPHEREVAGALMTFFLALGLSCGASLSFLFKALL

Block 1 — observed: thermal unfolding; method: differential scanning fluorimetry; concentration: 5.5 µM; reading: higher = more unfolded; measurement: SYPRO Orange fluorescence
Structure (SMILES): C[C@@H]1CN(c2ccc(-c3cc(C(=O)NCCOCCOCCOCCOCCOCCOCCNC(=O)/C=C/c4[nH]cc(C(=O)N[C@@H](CC(N)=O)c5ccc(F)c(Cl)c5)c4-c4ccc(Cl)cc4F)ccc3F)cc2NC(=O)c2ccc(F)cc2C(F)(F)F)C[C@H](C)N1C
WDR5: WD repeat-containing protein 5 (WDR5, Homo sapiens, UniProt P61964)
DCAF1: DDB1- and CUL4-associated factor 1 (DCAF1, Homo sapiens, UniProt Q9Y4B6)
Chain of UniProt Q9Y4B6 (whole entry, looked up): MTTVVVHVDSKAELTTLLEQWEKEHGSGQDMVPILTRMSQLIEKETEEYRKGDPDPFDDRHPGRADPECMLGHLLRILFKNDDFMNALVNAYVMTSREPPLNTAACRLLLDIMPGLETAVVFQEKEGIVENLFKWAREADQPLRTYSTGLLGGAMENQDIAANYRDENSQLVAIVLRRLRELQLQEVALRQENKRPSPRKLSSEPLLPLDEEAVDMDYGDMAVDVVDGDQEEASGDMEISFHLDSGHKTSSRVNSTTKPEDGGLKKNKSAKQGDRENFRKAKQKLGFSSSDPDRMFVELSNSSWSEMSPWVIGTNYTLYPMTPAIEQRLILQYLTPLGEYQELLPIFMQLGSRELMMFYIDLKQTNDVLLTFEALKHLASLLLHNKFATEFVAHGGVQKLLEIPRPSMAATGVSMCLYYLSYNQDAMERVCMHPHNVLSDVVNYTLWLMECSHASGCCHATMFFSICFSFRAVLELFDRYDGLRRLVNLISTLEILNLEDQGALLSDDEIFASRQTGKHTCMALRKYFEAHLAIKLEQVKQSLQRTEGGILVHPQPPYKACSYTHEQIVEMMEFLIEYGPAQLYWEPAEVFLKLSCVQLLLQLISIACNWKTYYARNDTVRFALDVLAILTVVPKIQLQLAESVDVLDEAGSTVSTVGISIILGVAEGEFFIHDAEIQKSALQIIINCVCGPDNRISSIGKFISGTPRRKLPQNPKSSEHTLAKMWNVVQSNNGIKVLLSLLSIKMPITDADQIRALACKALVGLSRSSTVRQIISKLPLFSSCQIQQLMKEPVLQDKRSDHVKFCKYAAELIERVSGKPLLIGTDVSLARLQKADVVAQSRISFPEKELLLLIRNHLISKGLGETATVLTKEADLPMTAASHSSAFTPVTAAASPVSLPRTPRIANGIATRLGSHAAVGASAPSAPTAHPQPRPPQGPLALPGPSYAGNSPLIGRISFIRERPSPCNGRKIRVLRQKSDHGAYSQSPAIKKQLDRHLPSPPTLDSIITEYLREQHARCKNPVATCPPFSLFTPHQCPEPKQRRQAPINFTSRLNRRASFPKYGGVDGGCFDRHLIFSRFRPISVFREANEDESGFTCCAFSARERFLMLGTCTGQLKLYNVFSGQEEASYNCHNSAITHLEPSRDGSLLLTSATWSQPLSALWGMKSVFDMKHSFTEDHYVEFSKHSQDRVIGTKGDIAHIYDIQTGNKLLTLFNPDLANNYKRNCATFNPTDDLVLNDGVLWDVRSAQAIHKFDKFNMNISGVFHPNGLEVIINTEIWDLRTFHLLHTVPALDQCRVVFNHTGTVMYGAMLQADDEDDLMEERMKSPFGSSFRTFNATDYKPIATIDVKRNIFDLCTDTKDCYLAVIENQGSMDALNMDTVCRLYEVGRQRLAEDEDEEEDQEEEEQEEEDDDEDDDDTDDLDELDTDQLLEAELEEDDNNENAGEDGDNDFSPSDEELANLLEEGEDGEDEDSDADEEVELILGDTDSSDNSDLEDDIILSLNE
WDR5; 50.2 °C: 16500 a.u.
WDR5; 88.81 °C: 56700 a.u.
DCAF1; 34.4 °C: 9670 a.u.
DCAF1; 47.4 °C: 16100 a.u.
WDR5; 71.41 °C: 33000 a.u.
WDR5; 75.21 °C: 49500 a.u.
WDR5; 34 °C: 13800 a.u.

Block 2 — measurement: tumour volume
SMILES: Cc1ncsc1-c1ccc(C(CO)NC(=O)C2CC(O)CN2C(=O)C(C(C)C)n2cc(-c3ccc(COc4c(-c5c(C)c(F)cc6[nH]ncc56)c(C5CC5)cc5c(N6CC7CC6CN7)nc(OC6CCOCC6)nc45)cc3)nn2)cc1 (stereo not shown)
mouse, PK-59 xenograft; 0.3 mg/kg, day 17: 1380 mm3 and 1150 mm3 and 1410 mm3 and 1500 mm3 and 1610 mm3
mouse, PK-59 xenograft; 10 mg/kg, day 7: 397 mm3 and 382 mm3 and 434 mm3 and 436 mm3 and 301 mm3
mouse, PK-59 xenograft; subcutaneous, 30 mg/kg once daily, day 8: 84.2 mm3 and 78.9 mm3 and 107 mm3 and 95 mm3 and 85.8 mm3
mouse, PK-59 xenograft; subcutaneous, 30 mg/kg once daily, day 22: 23.8 mm3 and 28.2 mm3 and 24.6 mm3 and 25.4 mm3 and 33 mm3
HPAC xenograft, mouse; 30 mg/kg twice weekly, day 4: 136 mm3 and 152 mm3 and 121 mm3 and 278 mm3
mouse, A-375 xenograft; sc, 30 mg/kg once daily, day 13: 501 mm3 and 857 mm3 and 588 mm3 and 1060 mm3 and 619 mm3

Further values, each from its own experiment
Cc1ccc(O)c(C)c1-c1cnc2[nH]c(-c3cnc(N4CCC5(CC4)CC(N4CCN(c6ccc(N[C@H]7CCC(=O)NC7=O)cc6F)CC4)CO5)nc3)cc2c1C#N (single isomer, unassigned)
AUC(0-t) (male beagle dog, plasma; oral, 5 mg/kg): 7.46 µg·h/mL

COc1cc(C(=O)OCCCN2CCCN(CCCOC(=O)c3cc(OC)c(OC)c(OCc4ccc([N+](=O)[O-])cc4)c3)CC2)cc(OC)c1OC
Hill slope (Equilibrative nucleoside transporter 2 (Homo sapiens, UniProt Q14542); adenosine uptake, inhibitor; Xenopus laevis oocytes; together with: [3H]adenosine): -0.235

Cc1ccc(O)c(C)c1-c1cnc2[nH]c(-c3cnc(N4CCC5(CC4)CC(N4CCN(c6ccc(N[C@H]7CCC(=O)N(C)C7=O)cc6F)CC4)CO5)nc3)cc2c1C#N (single isomer, unassigned)
degradation (Membrane-associated tyrosine- and threonine-specific cdc2-inhibitory kinase (PKMYT1, Homo sapiens, UniProt Q99640); degrader, automated immunoblot (Jess); 1000 nM, 24 h): 42.7%

Excerpt of the above (block 1):
WDR5; 71.41 °C: 33000 a.u.
WDR5; 75.21 °C: 49500 a.u.
